Results pooled from the literature.
Each line is one published result; not all experiments were run side by side. “And” joins repeats or separate records; there may be more than shown.
ABL1 F317I phosphorylated: Tyrosine-protein kinase ABL1, phosphorylated (ABL1, Homo sapiens, UniProt P00519, F317I)
Chain of UniProt P00519 (whole entry, unmodified, looked up): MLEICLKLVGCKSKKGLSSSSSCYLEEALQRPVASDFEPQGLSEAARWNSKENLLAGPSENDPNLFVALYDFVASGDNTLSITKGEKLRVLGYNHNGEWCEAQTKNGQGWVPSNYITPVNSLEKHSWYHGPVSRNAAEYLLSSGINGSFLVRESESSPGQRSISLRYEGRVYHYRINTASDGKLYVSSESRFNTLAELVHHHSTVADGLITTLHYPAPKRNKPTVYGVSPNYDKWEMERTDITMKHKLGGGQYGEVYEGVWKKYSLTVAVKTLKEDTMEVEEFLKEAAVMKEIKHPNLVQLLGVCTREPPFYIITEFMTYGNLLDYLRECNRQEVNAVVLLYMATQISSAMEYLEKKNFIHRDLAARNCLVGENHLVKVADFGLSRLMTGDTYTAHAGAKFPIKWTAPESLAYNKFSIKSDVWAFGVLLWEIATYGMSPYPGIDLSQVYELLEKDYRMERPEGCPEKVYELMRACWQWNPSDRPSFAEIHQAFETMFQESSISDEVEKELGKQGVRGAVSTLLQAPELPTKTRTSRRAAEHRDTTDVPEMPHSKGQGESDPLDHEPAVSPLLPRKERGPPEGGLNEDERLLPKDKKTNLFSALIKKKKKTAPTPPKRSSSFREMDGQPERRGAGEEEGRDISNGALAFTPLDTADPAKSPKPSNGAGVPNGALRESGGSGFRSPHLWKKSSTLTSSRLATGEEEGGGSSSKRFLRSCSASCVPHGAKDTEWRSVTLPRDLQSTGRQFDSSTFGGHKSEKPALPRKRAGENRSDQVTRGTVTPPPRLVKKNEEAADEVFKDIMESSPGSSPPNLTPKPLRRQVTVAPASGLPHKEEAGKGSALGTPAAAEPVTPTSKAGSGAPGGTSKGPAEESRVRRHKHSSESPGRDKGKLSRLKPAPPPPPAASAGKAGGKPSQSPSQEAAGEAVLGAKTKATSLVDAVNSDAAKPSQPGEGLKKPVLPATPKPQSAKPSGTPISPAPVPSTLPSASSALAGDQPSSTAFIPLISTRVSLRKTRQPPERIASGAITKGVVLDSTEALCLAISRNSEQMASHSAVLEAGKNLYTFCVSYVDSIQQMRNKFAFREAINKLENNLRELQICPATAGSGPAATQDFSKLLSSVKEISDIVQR
ABL1 F317L: Tyrosine-protein kinase ABL1 (ABL1, Homo sapiens, UniProt P00519, F317L)

C=CC(=O)N1CCc2ccc(-n3c(=O)ccc4cnc5ccc(-c6cnn(C)c6)cc5c43)cc21
remaining binding (Tyrosine-protein kinase ABL1, phosphorylated (ABL1, Homo sapiens, UniProt P00519); KINOMEscan; 1 µM; reference: DMSO control): 72%

CNC1C[S+]2CC[S+]3CC[S+](C1)[Ru-4]321([N]=C=S)[n]2c3ccc(OC)cc3c3c4c(c5cc(F)c[n+]1c5c32)C(=O)NC4=O (centres unmarked)
remaining binding (ABL1 F317I phosphorylated; KinomeScan; 0.1 µM; reference: untreated): 73%

C=CC(=O)N1CCCC(n2c(=O)c3ncccc3n(Cc3ccc(Oc4ccccc4)cc3)c2=O)C1 (centres unmarked)
remaining activity (ABL1 F317L; kinase activity; 1 µM): 81%

COc1cc(Nc2nccc(-c3cnn4nc(OC)ccc34)n2)cc(C(F)(F)F)c1
remaining binding (ABL1 F317I phosphorylated; binding; 1 µM): 83%

Nc1ncc2c(n1)-c1c([nH]c3ccc(C4=CCOCC4)cc13)CCC2
remaining binding (Tyrosine-protein kinase ABL1, phosphorylated (ABL1, Homo sapiens, UniProt P00519, E255K); binding, competition with immobilised ligand; 1 µM): 100%

Cc1cnc2nc1Nc1cccc(c1)COC/C=C/COCc1cc(ccc1OCCN1CCOCC1)N2
remaining binding (ABL1 F317L; 0.1 µM; reference: DMSO control): 62% and 93%

Cc1ccc(-c2c(/C=C(\C#N)C(=O)NC(C)C)n(CCCO)c3ncnc(N)c23)cc1
remaining binding (Tyrosine-protein kinase ABL1, non-phosphorylated (ABL1, Homo sapiens, UniProt P00519, F317L); binding, competition with immobilised ligand; 1 µM): 97%

CCN1CCN(Cc2ccc(C(=O)Nc3ccc(C)c(NCc4cnc5[nH]ccc5c4OC)c3)cc2C(F)(F)F)CC1
remaining binding (ABL1 F317I phosphorylated; binding, competition with immobilised ligand; 1 µM): 32%

For quick reference, copied from above:
C=CC(=O)N1CCc2ccc(-n3c(=O)ccc4cnc5ccc(-c6cnn(C)c6)cc5c43)cc21
remaining binding (Tyrosine-protein kinase ABL1, phosphorylated (ABL1, Homo sapiens, UniProt P00519); KINOMEscan; 1 µM; reference: DMSO control): 72%
